Experimental data pooled from the literature.
Compare with care: the assays were run in different laboratories. ± marks the error that the study gave.
CES2: Cocaine esterase (CES2, Homo sapiens, UniProt O00748)
PGR: Progesterone receptor (PGR, Homo sapiens, UniProt P06401)
HDAC8: Histone deacetylase 8 (HDAC8, Homo sapiens, UniProt Q9BY41)
Nr3c1: Glucocorticoid receptor (Nr3c1, Rattus norvegicus, UniProt P06536)
EPHX2: Bifunctional epoxide hydrolase 2 (EPHX2, Homo sapiens, UniProt P34913)

Compound	target	test	system	conditions	how to read	quantity	value
N#CCCN1CCN(C(=S)c2ccc(-c3cccc(C(F)(F)F)c3)o2)CC1	NPR2 (Homo sapiens, UniProt P20594)	HTRF, item: cGMP	HEK293 overexpressing GC-B	with: subthreshold CNP	baseline: saturating CNP	Emax	101%
CCCCCCCCC(=O)Nc1ccc(OC)nc1C	CES2	substrate	–	50 µM, pH 8, 37 °C, enzyme purity 4%	–	specific activity	37 pmol/min/µg
CCCCCCCCCSc1nc2c([nH]1)c(=O)n(C)c(=S)n2C	PGR	reporter gene, antagonist, MMTV-luciferase	T47D/A1-2	10 µM, 24 h, with: 5 nM progesterone	baseline: maximal activity	remaining activity	79%
Cc1nc(N(C)C)nc(C)c1O	PTGS1 (Ovis aries, UniProt P05979)	prostaglandin biosynthesis, inhibitor	–	concentration not given	baseline: paracetamol	relative inhibitory potency	25 fold
Cc1cc(=O)oc2cc(NC(=O)CCCCCCCC(=O)NO)ccc12	HDAC8	ITC	Tris-HCl buffer	pH 7.5, 25 °C	–	ΔG	-8.7 ± 0.1 kcal/mol
Clc1ccc2ccc3[n+](c2c1)[Ir-3]12([c]4ccccc4-3)([c]3ccccc3-c3ccc4ccc(Cl)cc4[n+]31)[n+]1ccccc1-c1cccc[n+]12.F[P-](F)(F)(F)(F)F	Cyclin-T1 (CCNT1, Homo sapiens, UniProt O60563)	CETSA	MDA-MB-231 lysate	3 µM, 30 min	–	thermal stability	no effect
Nc1ncnc2c(CN3C[C@H](CSCC[C@H](N)C(=O)O)[C@@H](O)C3)c[nH]c12	MTA/SAH nucleosidase (Campylobacter jejuni subsp. jejuni, UniProt Z9IB28FKP7)	–	–	–	baseline: Km of SAH over Kd	ratio	500 fold
CCCCCCCCCSc1nc2c([nH]1)c(=S)n(C)c(=O)n2C	Nr3c1	reporter gene, antagonist, MMTV-luciferase	T47D/A1-2	10 µM, 24 h, with: 5 nM dexamethasone	baseline: maximal activity	remaining activity	51%
CC(C)[C@H](NC(=O)[C@H](CCCCN)NC(=O)[C@H](C)NC(=O)[C@H](CCCCN)NC(=O)CNC(=O)[C@H](CCCNC(=N)N)NC(=O)[C@@H](NC(=O)[C@H](CCCCN)NC(=O)[C@@H](N)CO)[C@@H](C)O)C(=O)N[C@H](C(=O)NCC(=O)N[C@@H](CS)C(=O)N[C@@H](Cc1c[nH]c2ccccc12)C(=O)N[C@@H](CCCCN)C(=O)O)[C@@H](C)O	TPM1/ACTA1, with F-actin (Oryctolagus cuniculus, UniProt P58772+P68135)	binding, LSPR	–	pH 7.0, with: F-actin-tropomyosin filaments	–	kon	3850 ± 699 M⁻¹ s⁻¹
CNc1ccccc1C(=O)O[C@H]1C[C@H](n2cnc3c(N)ncnc32)O[C@@H]1COP(=O)(O)OP(=O)(O)O	Unconventional myosin-Va (Gallus gallus, UniProt Q02440, D297C/G292C/I296C/S293C/V295G)	stopped-flow FRET, linear fit intercept	–	4 °C, with: MgCl2 2 mM	–	dissociation rate constant	0.79 ± 0.36 s⁻¹
CCCCCCCCCc1nc2ccccc2c(=O)n1O	Staphylococcus aureus membranes	di-8-ANEPPS fluorescence ratio	–	40 µM	–	membrane dipole potential change	increased
CCCCCSc1nc2c([nH]1)c(=S)n(C)c(=S)n2C	Nr3c1	reporter gene, antagonist, MMTV-luciferase	T47D/A1-2	10 µM, 24 h, with: 5 nM dexamethasone	baseline: maximal activity	remaining activity	79%
O=C(NC[C@@H](Cc1ccc(F)cc1)N1CCC(O)(C(F)(F)F)CC1)C1(c2ccc(Cl)cc2)CCCC1	TRPA1 (Homo sapiens, UniProt O75762)	calcium influx, agonist	HEK293F transfected	–	baseline: AITC 300 µM	Emax	46 ± 1.3%
[3H]CC([3H])C(=O)NCc1cc(C(=O)NCCN2CCC(N3CCC(n4c(=O)[nH]c5ccccc54)CC3)CC2)cc(C(=O)NCCN2CCN(CCCCC3CCN(CC(=O)N4c5ccccc5NC(=O)c5ccccc54)CC3)CC2)c1 (centres unmarked)	CHRM2 (Homo sapiens, UniProt P08172)	binding	–	–	–	kon	5.17e+06 M⁻¹ s⁻¹
CC1=CC(C)=[N+]2C1=C(CCCCc1cn(C[C@H]3O[C@@H](O/C(=N\c4ccccc4)C(F)(F)F)[C@H](F)[C@@H](O)[C@@H]3O)nn1)c1c(C)cc(C)n1[B-]2(F)F	GBA1 (Homo sapiens, UniProt P04062, R534H)	thermal stability, tryptophan fluorescence	–	saturating, pH 5.2	–	Tm increase	12.9 °C
CC12CC3CC(C)(C1)CC(NC(=O)Nc1ccc(C(=O)N4CCN(S(C)(=O)=O)CC4)cc1)(C3)C2	EPHX2	–	–	–	–	lipophilic ligand efficiency	7.27
CCc1nc2cc3ccccc3cc2cc1C(=O)N1CCC[C@H]1C(=O)N[C@@H](C/C=C\C[C@H](NC(=O)[C@@H]1CCCN1C(=O)c1cc2cc3ccccc3cc2nc1CC)C(=O)N[C@@H](CCCCN)C(=O)NCCCN)C(=O)N[C@@H](CCCCN)C(=O)NCCCN	CUG-CAG duplex RNA	SPR	–	–	baseline: compound over E isomer	binding ratio	~4.6 fold
CC(C)(C)CCN1C[C@@H]2[C@@H](CNC(=O)c3cc(Cl)cc(Cl)c3)[C@@H]2C1.Cl	CACNA1C (Oryctolagus cuniculus, UniProt P15381, V1063M)	calcium current inhibition, whole-cell patch clamp	HEK-293T cells	–	–	Hill slope	0.72 ± 0.29
COc1ccc(CN(CCCCCCC(=O)NO)Cc2ccc(OC)c(OC)c2)cc1OC	HDAC8	inhibitor	–	–	baseline: IC50 HDAC8 over HDAC1	selectivity ratio	7.8
O=C(Nc1ccc(Cl)cc1)Nc1cccc2[nH]ccc12	Alpha-synuclein (SNCA, Homo sapiens, UniProt P37840)	fibril formation, ThT fluorescence kinetics	–	100 µM, α-syn 2 µM, plateau phase	baseline: DMSO vehicle	maximum ThT fluorescence	15 ± 3%
CC(=O)OC1(C(C)=O)CCC2C3C=C(C)C4=CC(=O)C(O)CC4(C)C3CCC21C (centres unmarked)	PGR	agonist, item: FKBP5	T47D	100 nM, 8 h	baseline: ethanol vehicle	mRNA fold change	7.5 ± 0.2 fold change

Compound	target	test	system	conditions	how to read	quantity	value
CC1=C(/C=C/C(C)=C/C=C/C(C)=C/C=O)C(C)(C)CCC1	CNGA1 (Bos taurus, UniProt Q00194)	ion current, inhibitor, outside-out patch clamp	–	400 nM, with: cGMP 2 mM	–	time constant of inhibition	112 min
Cc1cc(C(=O)Nc2nc3cccc(C)c3n2[C@H]2CCCCN(C(=O)/C=C/CN(C)C)C2)ccn1	CDC2-like kinase 1 (Trypanosoma brucei brucei, UniProt Q382U0)	enzyme activity, time-dependent inhibitor, ADP-Glo	–	–	–	time to IC50 plateau	~20 min
N[C@@H](Cc1ccc(O)c(Cl)c1)C(=O)O	Iodotyrosine deiodinase 1 (Homo sapiens, UniProt Q6PHW0)	substrate, stopped-flow	–	200 µM	–	k1	1.5 s⁻¹
[3H]C(CNC(=O)c1ccc(-c2ccsc2)cc1)C([3H])CN1CCN(c2ccccc2OCCF)CC1 (centres unmarked)	DRD3 (Homo sapiens, UniProt P35462)	radioligand, saturation binding	HEK293 membranes	0 mM NaCl	–	Bmax	2310 ± 581 fmol/mg protein
COC(=O)Nc1ccc2c(c1)c(Cc1ccc(C(=O)NS(=O)(=O)c3ccc(C(F)(F)F)cc3)cc1OC)cn2C	Tumor necrosis factor receptor superfamily member 1A, extracellular domain (Homo sapiens, UniProt P19438)	binding, 19F NMR	–	–	–	Hill coefficient	1.39
CCCCCCCCSc1nc2c([nH]1)c(=S)n(C)c(=S)n2C	PGR	reporter gene, antagonist, MMTV-luciferase	T47D/A1-2	10 µM, 24 h, with: 5 nM progesterone	baseline: maximal activity	remaining activity	97%
CC1(CCCN2CCN(c3ccccn3)CC2)Cc2cc(Cl)ccc2C1=O (centres unmarked)	HTR1A (Homo sapiens, UniProt P08908)	binding, radioligand binding	HEK293, membranes	with: [3H]8-OH-DPAT	–	Hill slope	-0.53 ± 0.03
NC(=O)CN1C(=O)C(O)(CC(=O)c2cccc(N)c2)c2ccccc21 (centres unmarked)	uncharacterized protein (Leishmania donovani, UniProt A0A3Q8IA09)	Tyr fluorescence thermal shift	–	100 µM	baseline: enzyme alone	Tm shift	~15 °C
O=c1cc(-c2ccc(O)cc2)oc2c([C@@H]3OC[C@@H](O)[C@H](O)[C@H]3O)c(O)c([C@@H]3O[C@H](CO)[C@@H](O)[C@H](O)[C@H]3O)c(O)c12	SLC5A2 (Homo sapiens, UniProt P31639)	inhibitor	COS-7 expressing SLC5A2	50 µM	baseline: control	1-NBDG uptake	35.9 ± 1.81%
C=CC(=O)N1C[C@H](C)N(c2nc(OC[C@@]34CCCN3C[C@H](F)C4)nc3c(F)c(-c4ccc(F)c5sc(N)nc45)c(C(F)(F)F)cc23)C[C@H]1C	GTPase KRas, GTP-bound (KRAS, Homo sapiens, UniProt P01116, C118S/G12C)	MALDI-TOF MS	–	15 min, with: GTP-loaded protein	–	covalent modification	38%
CCCCOP(=O)(CCCC)O[C@@H]1O[C@H](CO)[C@@H](O)[C@H](O)[C@H]1F (mixture of isomers)	GBA1 (Homo sapiens, UniProt P04062)	enzyme activity, irreversible inhibitor	–	pH 5.5, 37 °C, with: 2,4-dinitrophenyl beta-D-glucopyranoside	–	inactivation rate constant	0.49 min⁻¹
[3H]C([3H])([3H])c1cnccc1CN1C[C@@H](c2cc(F)c(F)c(F)c2)CC1=O	SV2A (Homo sapiens, UniProt Q7L0J3)	radioligand binding, saturation binding	human Alzheimer disease, frontal cortex P2 fraction	dose not given	baseline: control brains	loss of specific binding	~41%
CC12CC3CC(C)(C1)CC(NC(=O)Nc1ccc(C(=O)N4CCC[C@H](NS(C)(=O)=O)C4)cc1F)(C3)C2	EPHX2	–	–	–	–	lipophilic ligand efficiency	7.35
N=C(N)NCCC[C@H](NC(=O)[C@H](CC(=O)O)NC(=O)[C@@H]1CSCC(=O)NCC(=O)N[C@@H](Cc2c[nH]cn2)C(=O)N[C@H](Cc2ccccc2)C(=O)N[C@@H](CCCNC(=N)N)C(=O)N[C@H](Cc2c[nH]c3ccccc23)C(=O)N1)C(=O)N[C@@H](Cc1ccccc1)C(=O)NCC(N)=O	MC5R (Homo sapiens, UniProt P33032)	cAMP accumulation	HEK293 expressing MC5R	concentration not given	–	functional activity	inactive
CCCCCCCC(=O)Nc1ccc(C)nc1OC	CES2	substrate	–	50 µM, pH 8, 37 °C, enzyme purity 4%	–	specific activity	110 pmol/min/µg
[11CH3]Nc1ccc(-c2nc3ccc(O)cc3o2)cn1	APP (Homo sapiens, UniProt P05067)	binding, PET, reference Logan	Alzheimer's disease patients, anterior cingulate cortex	–	baseline: cerebellum	distribution volume ratio	1.46 ± 0.14
O=C(Nc1ccc(C(=O)Nc2ccc(C(=O)Nc3ccc(S(=O)(=O)O)c4cc(S(=O)(=O)O)cc(S(=O)(=O)O)c34)cc2)cc1)Nc1ccc(C(=O)Nc2ccc(C(=O)Nc3ccc(S(=O)(=O)O)c4cc(S(=O)(=O)O)cc(S(=O)(=O)O)c34)cc2)cc1	Neutrophil elastase (ELANE, Homo sapiens, UniProt P08246)	substrate S-1384 hydrolysis	–	pH 7.4, 37 °C, enzyme 400 nM	–	Km	250 ± 31.7 µM
O=C([O-])CN1CCN(CC(=O)[O-])CCN(C(CCC(=O)NCCCCCN(CCCC[C@H](NC(=O)N[C@@H](CCC(=O)O)C(=O)O)C(=O)O)C(=O)c2ccc(I)cc2)C(=O)O)CCN(CC(=O)[O-])CC1.[68Ga+3] (some centres unmarked)	FOLH1 (Homo sapiens, UniProt Q04609)	PET/CT	prostate cancer patients, lymph node metastases	60 min	baseline: lesion SUVmax over muscle SUVmean	mean tumour-to-background ratio	34.4
Nc1nc(SCc2ccc(Cl)cc2)nn1S(=O)(=O)c1ccc2c(c1)CCO2	Lysophospholipase-like protein 1 (Mus musculus, UniProt Q3UFF7)	activator, gel-based ABPP FP-rhodamine	–	concentration not given	baseline: DMSO	fold activation	~2.5 fold
Cc1ccc2ccc3ccc(C)nc3c2n1.Cc1ccc2ccc3ccc(C)nc3c2n1.O.[Cl-].[Cl-].[Cl-].[Yb+3]	Albumin (ALB, Bos taurus, UniProt P02769)	fluorescence quenching, van't Hoff	–	290 to 303 K	–	ΔH°	-23.047 ± 0.012 kcal/mol

Excerpt of the above:
Compound	target	test	system	conditions	how to read	quantity	value
O=C(Nc1ccc(Cl)cc1)Nc1cccc2[nH]ccc12	Alpha-synuclein (SNCA, Homo sapiens, UniProt P37840)	fibril formation, ThT fluorescence kinetics	–	100 µM, α-syn 2 µM, plateau phase	baseline: DMSO vehicle	maximum ThT fluorescence	15 ± 3%
[3H]C([3H])([3H])c1cnccc1CN1C[C@@H](c2cc(F)c(F)c(F)c2)CC1=O	SV2A (Homo sapiens, UniProt Q7L0J3)	radioligand binding, saturation binding	human Alzheimer disease, frontal cortex P2 fraction	dose not given	baseline: control brains	loss of specific binding	~41%
O=c1cc(-c2ccc(O)cc2)oc2c([C@@H]3OC[C@@H](O)[C@H](O)[C@H]3O)c(O)c([C@@H]3O[C@H](CO)[C@@H](O)[C@H](O)[C@H]3O)c(O)c12	SLC5A2 (Homo sapiens, UniProt P31639)	inhibitor	COS-7 expressing SLC5A2	50 µM	baseline: control	1-NBDG uptake	35.9 ± 1.81%
CC(C)(C)CCN1C[C@@H]2[C@@H](CNC(=O)c3cc(Cl)cc(Cl)c3)[C@@H]2C1.Cl	CACNA1C (Oryctolagus cuniculus, UniProt P15381, V1063M)	calcium current inhibition, whole-cell patch clamp	HEK-293T cells	–	–	Hill slope	0.72 ± 0.29
CCCCOP(=O)(CCCC)O[C@@H]1O[C@H](CO)[C@@H](O)[C@H](O)[C@H]1F (mixture of isomers)	GBA1 (Homo sapiens, UniProt P04062)	enzyme activity, irreversible inhibitor	–	pH 5.5, 37 °C, with: 2,4-dinitrophenyl beta-D-glucopyranoside	–	inactivation rate constant	0.49 min⁻¹
CCCCCCCC(=O)Nc1ccc(C)nc1OC	CES2	substrate	–	50 µM, pH 8, 37 °C, enzyme purity 4%	–	specific activity	110 pmol/min/µg
CCc1nc2cc3ccccc3cc2cc1C(=O)N1CCC[C@H]1C(=O)N[C@@H](C/C=C\C[C@H](NC(=O)[C@@H]1CCCN1C(=O)c1cc2cc3ccccc3cc2nc1CC)C(=O)N[C@@H](CCCCN)C(=O)NCCCN)C(=O)N[C@@H](CCCCN)C(=O)NCCCN	CUG-CAG duplex RNA	SPR	–	–	baseline: compound over E isomer	binding ratio	~4.6 fold
